Experimental data from different studies.
Numbered parts are unrelated; each lists some results of a single study.

Sample 1
Target: Max dimerization protein 1, bHLH-zipper, MAX partner unstated (MXD1, Homo sapiens, UniProt Q05195, residues 56-136)
Method: protein-binding microarray
Form: double-stranded DNA, one strand shown
Medium: in vitro
Tested at: not given
Notes: k-mer, scored over probes, only values ≥0.25
Reading: higher = stronger binding
Construct (chain): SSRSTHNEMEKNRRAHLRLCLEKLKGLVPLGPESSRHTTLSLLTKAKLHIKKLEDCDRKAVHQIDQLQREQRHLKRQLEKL
| Sequence | E-score |
| --- | --- |
| CACGAGGC | 0.432 |
| ACGCCATG | 0.328 |
| ATGGGGGC | 0.368 |
| GTGCGCAC | 0.341 |
| ACGTGGCG | 0.372 |
| ACGTGGCC | 0.377 |
| GCGCGTGA | 0.292 |
| CCCCGCCG | 0.299 |
| GAACGTGC | 0.292 |
| ACGTGTTG | 0.413 |
| CACGTGAG | 0.479 |
| ACCACGAG | 0.383 |
| AACATGCT | 0.385 |
| ACATGAGG | 0.396 |
| CTCATGCC | 0.326 |
| ATCACGCG | 0.329 |
| GGCGGGGA | 0.388 |
| CATGCTGA | 0.428 |
| AACCCACG | 0.375 |
| CCCATGCC | 0.348 |
| CCACGCGA | 0.402 |
| ACGCGTCG | 0.292 |
| ATGGGGCG | 0.279 |
| CCTCCCCC | 0.296 |
| CCTCGTGA | 0.365 |

Sample 2
Target: Interferon regulatory factor 7, full length, phosphomimetic (IRF7, Homo sapiens, UniProt Q92985, residues 1-503, S101K/S471D/S472D/S475D/S476D/S477D/S483D/S484D/S487D)
UniProt Q92985, sequence (whole entry, unmodified, looked up): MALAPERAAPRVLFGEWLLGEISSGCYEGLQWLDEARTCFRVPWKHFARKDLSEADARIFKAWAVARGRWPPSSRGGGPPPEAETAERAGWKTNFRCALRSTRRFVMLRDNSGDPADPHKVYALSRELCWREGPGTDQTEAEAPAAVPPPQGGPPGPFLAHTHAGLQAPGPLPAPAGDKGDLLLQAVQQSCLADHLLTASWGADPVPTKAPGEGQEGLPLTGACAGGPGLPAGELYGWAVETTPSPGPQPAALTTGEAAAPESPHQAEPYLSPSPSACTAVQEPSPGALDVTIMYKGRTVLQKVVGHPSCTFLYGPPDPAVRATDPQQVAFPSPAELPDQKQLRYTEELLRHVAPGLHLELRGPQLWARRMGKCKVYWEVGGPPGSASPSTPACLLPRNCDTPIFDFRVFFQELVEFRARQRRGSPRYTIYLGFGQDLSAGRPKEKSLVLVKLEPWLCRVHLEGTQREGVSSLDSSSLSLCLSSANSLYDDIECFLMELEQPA
Method: protein-binding microarray
Form: double-stranded DNA, one strand shown
Medium: in vitro
Tested at: 250 nM
Notes: 60-bp whole probe
Together with: salmon DNA 0.4 mg/ml
Reference: random background probes
Reading: higher = stronger binding
Shared flanks, not repeated: GCCTAGCAC … GTCTTGATTCGCTTGACGCTGCTG
| Sequence | log fluorescence |
| --- | --- |
| GACGGTTTTGGGTATCGGGACGTGCTA | 1.15 z-score |
| GACGATATTGGGTATCGAGACGTGCTA | 0.0152 z-score |
| TTAGATCTCAGTATCGATTAGTGCTAG | 0.99 z-score |
| GACGGTATCGGTCTCAGGACGTGCTAG | 0.693 z-score |
| GGCGATATCAGTTTCGAGACGTGCTAG | 3.52 z-score |
| TTAGGACTGGGGTTTCTGTTAGTGCTA | 1.25 z-score |
| AGTAATGACCTTCTCAGGAGGTGCTAG | -0.0655 z-score |
| GACGGTCTCGGTCTCGCGACGTGCTAG | 0.81 z-score |
| TCATGCTTAGTATTTTTTACTGTGCTA | -0.234 z-score |
| TCAGTTTTCAATTTTTGACTGTGCTAG | 1.15 z-score |
| TTTGTAATCGAAATCTTCATGTGCTAG | 0.294 z-score |
| TCAATTATATATTTATGACTGTGCTAG | 0.575 z-score |
| GAGGGTATCGGGTATCGGGACGTGCTA | 0.0626 z-score |
| GACGGACTGCTACTGCGGACGTGCTAG | -0.699 z-score |
| TTAGAACTGAGTCTCGATCAGTGCTAG | -0.0372 z-score |
| GGCCCTGTCCTTTTCTTTACGTGCTAG | -0.303 z-score |
| ATCATTTTCGTTTTTATTATGTGCTAG | 7.72 z-score |
| GACGGACTGGGTCTCGGGCCGTGCTAG | -0.568 z-score |
| TTAGAACTGGGCACTGGATTAGTGCTA | -0.641 z-score |
| TTAGGACCGGGGTTTCGGTTAGTGCTA | 5.85 z-score |
| TTAGAACTGAGTCTCAATTAGTGCTAG | 0.125 z-score |
| TTAGATTCCAGTTTCGCTTAGTGCTAG | 8.31 z-score |
| GACGGTCGCCTTCTCCTGACGTGCTAG | -0.722 z-score |
| TCACATCTCCAAAGTCAGACTGTGCTA | 0.509 z-score |
| ATAGGTTTCGACTATCGGTTAGTGCTA | 5.68 z-score |

Sample 3
Target: Ras GTPase-activating protein-binding protein 1, full length (G3BP1, Homo sapiens, UniProt Q13283)
UniProt Q13283, sequence (whole entry, looked up): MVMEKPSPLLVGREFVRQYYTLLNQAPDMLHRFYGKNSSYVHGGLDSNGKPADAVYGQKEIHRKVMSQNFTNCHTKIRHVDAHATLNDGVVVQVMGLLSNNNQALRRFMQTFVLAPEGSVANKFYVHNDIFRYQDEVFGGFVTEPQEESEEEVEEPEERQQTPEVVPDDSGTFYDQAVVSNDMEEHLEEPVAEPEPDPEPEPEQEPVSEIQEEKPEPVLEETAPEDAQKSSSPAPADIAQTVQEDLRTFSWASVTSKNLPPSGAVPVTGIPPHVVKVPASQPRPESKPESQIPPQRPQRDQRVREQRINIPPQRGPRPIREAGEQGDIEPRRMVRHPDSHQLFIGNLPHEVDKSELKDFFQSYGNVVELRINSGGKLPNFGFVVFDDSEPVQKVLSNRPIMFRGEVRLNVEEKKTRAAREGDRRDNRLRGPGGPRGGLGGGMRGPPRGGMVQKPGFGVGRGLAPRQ
Method: RNA Bind-n-Seq
Form: RNA
Medium: in vitro
Tested at: 200 nM
Notes: whole 134-nt RNA, ends assumed
Together with: 150 mM KCl
Reference: input library
Reading: higher = stronger binding
| Sequence | log2 enrichment |
| --- | --- |
| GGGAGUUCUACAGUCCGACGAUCUCCUGUGCUACACAUCGUAUGUACCGAAUCGGGUUUUUUUGGGUUUGGGAAAAAAAGGGAAAGUAUUAUGUUACGCCGUUCGGAUCUGCAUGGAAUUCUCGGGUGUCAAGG | -0.48 |
| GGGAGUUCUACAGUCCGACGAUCCUCAAGUCCUGUGCUACACAUCGUAUGUACCGAAUCGGGGAGGGGAGGGGAGGGAAAGUAUUAUGUUACGCCGUUCGGAUCUGCACUUCCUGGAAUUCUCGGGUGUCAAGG | 1.41 |
| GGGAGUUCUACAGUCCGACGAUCCACAGACAACACGCACCCACACAGACACAGAGGGAAGGGGUUGGGAUGGGGACAGGGUGCACGGCAGGGCGGGGUAGGACCCCAGCCCCUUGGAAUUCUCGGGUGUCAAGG | 1.77 |
| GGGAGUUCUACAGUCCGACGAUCCACAGACAACACGCACCCACACAGACACAGAGGGAAGGGGUUGGGAUGGGGACAGGGUGCAGAGCAGGGCGGGGUAGGACCCCAGCCCCUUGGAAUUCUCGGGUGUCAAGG | 1.83 |
| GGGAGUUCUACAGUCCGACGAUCCCUCAAGUCCUGUGCUACACAUCGUAUGUACCGAAUCGGCCGGGCCGGCCGGAAAGUAUUAUGUUACGCCGUUCGGAUCUGCACUUCCAGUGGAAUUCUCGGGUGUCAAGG | -0.265 |
| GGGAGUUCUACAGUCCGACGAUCGUCCUGUGCUACACAUCGUAUGUACCGAAUCGGGGUUUUUGGGGAGGGGUUUUUGGGGAAAGUAUUAUGUUACGCCGUUCGGAUCUGCACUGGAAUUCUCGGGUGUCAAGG | 0.293 |
| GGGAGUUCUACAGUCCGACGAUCUCCCAAUGCUCGGAGGAAGCCCAAGGGCAGCCCUCGUGUACCUGAUGCCAAGAAGCCUAAACCCAAGAAAGUAGCUCCCCUGAAAAUCAAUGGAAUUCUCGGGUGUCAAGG | 0.763 |
| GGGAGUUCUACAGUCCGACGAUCUGGGAGGUGGAUUUUGUUUAUUUUUUUAGCUCAUUUCCAGGGGUGGGAAUUUUUGUUUAAUAUGUGUCAUGAAUAAAGUUGUUUUUGAAAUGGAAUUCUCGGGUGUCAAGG | 0.299 |
| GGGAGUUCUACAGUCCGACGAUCCUGUGCUACACAUCGUAUGUACCGAAUCGGGGUUUUUUUGGGGAAAGGGGUUUUUUUGGGGAAAGUAUUAUGUUACGCCGUUCGGAUCUGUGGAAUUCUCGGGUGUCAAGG | -0.328 |
| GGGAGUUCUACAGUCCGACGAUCUCAAGUCCUGUGCUACACAUCGUAUGUACCGAAUCGGUUUGGGUUUGGGGUUUGGAAAGUAUUAUGUUACGCCGUUCGGAUCUGCACUUCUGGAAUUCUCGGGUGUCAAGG | -0.775 |

Sample 4
Target: RNA binding protein fox-1 homolog 2, RRM domain, GST-SBP tag (RBFOX2, Homo sapiens, UniProt O43251-10, residues 100-194)
Method: RNA Bind-n-Seq
Form: RNA
Medium: in vitro
Tested at: 365 nM
Notes: natural RNA segment, single round, ends assumed
Reference: no-protein control
Reading: higher = stronger binding
Residues (chain): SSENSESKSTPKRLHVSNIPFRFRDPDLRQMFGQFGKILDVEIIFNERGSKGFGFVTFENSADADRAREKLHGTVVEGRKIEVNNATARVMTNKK
| Sequence | RBNS enrichment (R) |
| --- | --- |
| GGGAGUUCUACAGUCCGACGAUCUAAAUAAAUAAUUUUAGAAGUCUUUUUUUCUUUCCACAGACGACUAUUCUGAUCUAUUUUUUCCAGCCAUGUCACAAAGUGUGAAUUCCUACCAGCUAUUGACAGAGUACUGGAAUUCUCGGGUGCCAA | 0.679 |
| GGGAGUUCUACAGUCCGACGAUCGUGUAGGUCCUUCCUGAGCCCUUGCUUGUGUUUGGGCCAGCUUAGGACCUGGAGUCCUGGGGAGAGAAGGUGGGGAGGCUUGAGGCCUUUCUCUACUCCUCUCCCUCAGUUGGAAUUCUCGGGUGCCAA | 0.449 |
| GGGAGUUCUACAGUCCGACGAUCCCUGUCCCCCCCGGCCAGCCUCCCCAACUUGAUGUUUGUGUUUUGUUUGGGGGGAUAUUUUUCAUAAUUAUUUAAAAGACAGGCCGGGCGCGGUGGCUCACGUCUGUAAUUGGAAUUCUCGGGUGCCAA | 0.395 |
| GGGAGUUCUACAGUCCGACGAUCUGCACUGUCUUUUGUAGCUCUGGACUGGAGGGGUAGAUGGGGAGUCAAUUACCCAUCACAUAAAUAUGAAACAUUUAUCAGAAAUGUUGCCAUUUUAAUGAGAUGAUUUUUGGAAUUCUCGGGUGCCAA | 0.475 |
| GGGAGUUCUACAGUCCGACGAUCUAGAGAGCCAUAAAUAACUCUCUGGUGAAGUGAUUUGCUAUAAUGGGGGUGAGGAGUGGGGAGACUUCUCUGGUCAUUACACUGCUAUUUAUUUCUAGAACUCACUAUCAUGGAAUUCUCGGGUGCCAA | 0.357 |
| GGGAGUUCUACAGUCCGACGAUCCUGCCCCAAGGUUGUCAGAGUCAAGUCUGGGAGCAGAAAAGGGGUGAGUUUUCACAUCCCUGCAUCUUCUGCUUUGCAAUGAAGGUUCUGUCGGUGAGGCCUUCUCUAAUUGGAAUUCUCGGGUGCCAA | 0.55 |
| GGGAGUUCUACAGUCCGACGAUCACCCUAAUCUUCGCAGCCGCUUGGCCCUGAGAGAUGAUGCCCUGUACAGGAGAUCCCUUCUCACCCUCCAGCUCUGCAAACCGUGUCUCAUGUUUCACAGCGUUCCUGUUUGGAAUUCUCGGGUGCCAA | 0.565 |
| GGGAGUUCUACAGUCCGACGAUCAUUUUAUGGACAUUUUUUGGGCAUUUAAGCCAUCAGGCCUAUUGCAAGAGUGCCUCCUGUAGCAGUUUUAACCAAAUUUCAUUCCCCUGGUACCGUGGAGCUUUAUUUUGUGGAAUUCUCGGGUGCCAA | 0.471 |
| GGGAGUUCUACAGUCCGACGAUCUGUUGUUUACUAUGGAAUUAGUAUUACAUUUUGAGGUAAACAAAGAAUUUGUAUUGCUUGAUAAACUAUUAGCUUGUAAAUUAAAAUUUUUUUCUUUACCUCAGUUAACUUGGAAUUCUCGGGUGCCAA | 0.387 |
| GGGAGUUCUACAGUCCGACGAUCCGUGUGGGUGGCACCCUGAGGUCAGGGGAUCCUAAGGGUGUCCUUCCAGAGACGGUGUUUCCAGGGGGAGGACCGCCCCCGCUUCCAGAUCCCCGGCCCCGGCUGUGACUUGGAAUUCUCGGGUGCCAA | 0.536 |
| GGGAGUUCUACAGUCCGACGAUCUUCUACUCUUAAUACUUCACUGUGAUGUUAACUUGGAAGACCUGCUGAAGAUUAGUCUUUUAAUUUUAGACCAUUAUAUCUGCUGAGCACAGGAUUCUUAUCAUUUGUAAUGGAAUUCUCGGGUGCCAA | 0.444 |
| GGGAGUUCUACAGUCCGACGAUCAAAGAAUAUUUAUUUAAAGAGGGAAGUGUAGACUUCUUACUGUAAAAUAUGUGAUUCCAGGCUUAAGAAAUUGAUUAUAUUUUAAAAUAAUUAUUUUUUUAAAAACGUAAUGGAAUUCUCGGGUGCCAA | 1.1 |
